Published values from different studies.
Each numbered part is a random draw from the data of one study; scales do not carry over between parts. Positions count from the first letter of the parent shown.

Series 1
Target: CCNE1, cyclin fold, Cln2 fusion (human)
Method: yeast growth competition, sequencing
Medium: yeast
Setting: weak parent motif
Reference: not given
Reading: higher = stronger binding
Starting sequence: SAMHD1 docking peptide (human); ASKSRVQLFKDDP
| Variant | normalised enrichment score |
| --- | --- |
| D11F | 0.382 |
| V6I | -0.14 |
| S2N | 0.102 |
| K10W | 0.316 |
| K3S | 0.139 |
| S2K | -0.0969 |
| V6A | 0.255 |
| Q7D | -0.354 |
| D11G | 0.243 |
| D11Q | -0.217 |
| R5Q | -0.119 |
| D11E | 0.369 |
| D11W | -0.036 |
| S4D | 0.086 |
| S4N | 0.311 |
| Q7V | 0.225 |
| Q7M | -0.18 |
| L8C | -0.332 |
| D11H | -0.0666 |
| S4I | 1.15 |
| D11P | 0.194 |
| D12K | 0.0246 |
| D12I | 0.293 |
| D11A | -0.00345 |

Series 2
Target: Hepatocyte nuclear factor 3-alpha (Foxa1, Mus musculus, UniProt P35582, residues 1-468, full length assumed)
Method: EMSA with sequencing
Form: double-stranded DNA, one strand shown
Medium: in vitro
Concentration: 10 and 20 nM
Setting: whole designed probe, mean of two concentrations, ends assumed
Reference: negative control set to 0
Reading: higher = stronger binding
Shared flanks, not repeated: GTGAGCGGTGCCCATTGATGGGGAAC … TTTCACTGGGATCGTGGGGAC
Construct (chain): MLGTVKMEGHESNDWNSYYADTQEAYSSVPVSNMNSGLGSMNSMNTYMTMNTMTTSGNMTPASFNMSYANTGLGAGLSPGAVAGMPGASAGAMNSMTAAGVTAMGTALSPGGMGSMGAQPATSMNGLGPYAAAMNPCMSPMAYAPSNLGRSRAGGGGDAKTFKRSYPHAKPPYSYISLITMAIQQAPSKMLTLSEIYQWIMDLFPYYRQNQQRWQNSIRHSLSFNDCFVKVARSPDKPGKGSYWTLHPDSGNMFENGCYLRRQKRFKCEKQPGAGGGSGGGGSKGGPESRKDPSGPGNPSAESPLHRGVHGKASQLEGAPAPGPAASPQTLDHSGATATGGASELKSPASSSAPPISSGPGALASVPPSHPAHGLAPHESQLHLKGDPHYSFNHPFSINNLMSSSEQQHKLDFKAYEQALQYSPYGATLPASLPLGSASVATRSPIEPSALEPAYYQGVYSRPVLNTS
| Strand | normalised bound fraction |
| --- | --- |
| AAACTTCCTGTCCCATCACCCAGCATCAACACCATTAACCAGTCATGACTAATCCTGCCCCATCCACGTCCCCAGCCTTTCCCCGACTTCTCAAAATTGCTTTGAAACAAATCCCAGATATAATATCATTTCATTGTGAGGTTGTTGTGAGGATTAACTAAAAGCATGCCTATCATATGGGTCTCTAAAAGAT | 0.342 ratio |
| TCTCCCCTGCAGGAGTTTGGACTAATCAGGTCACTACACCCTGACACAGCAGTCTCCAGTCTCTACCACTCATTGTTTGCAACATGACGTAATGTCATCTGACCACAGAGAAGTTAGCAACAGGGAAGGGAAAACACTTTAATCTCAAGGTCATCCCCAGGGTTCAGCAGGACATATATCCTATATCGAATCA | -0.0108 ratio |
| TGTATCCATCTGGGCAGTATCTTCTCTGGGCCTGGCCTGTCATAGGTGCTTCAGGTTTCCCCATTTGAACCAGATACCAGTCGGGTTACCGGATGTTTGCTTAAAATGAGTCATAGGCTTCCTGCTATTCCTGTGCTGCTTCCAGCTAGGACTGATCGAATCAGTCTGGATTTTCCTTGGGGTGATCCGCAGG | 0.143 ratio |
| TTCCTTTATCCCAACAAGATTATACAGACAAAACCAGGTTAAAATCGACACAAGGTCAACTTGAAATGGGGAAAGAGGAAGGTGACGTCACAAAATAATCTTGAAGTCTTGTGTACAAGCATCTGCAGAAGAGTTCAGCCTCACCACTTGGGTAATGCTGTTGGAATGTGGTCTGGGTTCACTGTATTTGAAT | -0.00807 ratio |
| TAGAGAAAGAAAAGAGAAACCAGGAATAATCAGTGAATGATAAGCAAGTAACATGGTTTAAAAGCATTCCAGGAGTTCCATTTTTAAGCACTCTTGTTTACTTAGTTTTGCTACCCACTTGTTGCTTTGGAAGAGTTTCTATTAATTAGATGTCATTTTTCAAAAGTGCGTACTTAATTGTTATATGAATTAC | 0.438 ratio |
| GTCCTGATGTAGGGGACCATAAACTATGGTGGGTAACTGGCCCTTCAAAATAGCCATCAAATGGCAACACTTGCCTAAACCTTGGAGGGCATTGTAATCTGGGATCTTCTGGGTGTCACCTCAAGAATTTAAGACTTCTAAACAGGGAATATTGATCCCGCCTAAAGGGAAGAATCTTATCAGATGAGAAAAG | -0.0788 ratio |
| ATCTTCCCCCTCTTCCTTGCCCCACCAGCTCACCTTCCCGGGTTATTTGCAGATAGGAAAATAAATAAAGCCGGCATTCGTGATGAATCATGACGCGCATACTGCCAGAGCAAACAGATCTAACATGGTCCTTTGGCGACGCCAGGCTCCGGGAGAGCAAAGCACCGTGTCAGGGCCATGATCCGGGGTGGCC | 0.395 ratio |
| TCCCATCTAAGAAGGATGCTGGCTTCTCCTGCTGTTGGTCTGTTTACACCAAACTGACTTGATATTTTTATCTGTTTACGAAGTGGTGCAAAATGTTTACATAGTAGTGACCTGGTTTCTGTGGATCTGGGAGTGCTGTTTGCAGTAGAATGTTTGCTAATCTTCCGTGACGCTCTAATCGTTTGTATTTAGT | 0.489 ratio |

Series 3
Target: Ras GTPase-activating protein-binding protein 1, RRM domain (G3BP1, Homo sapiens, UniProt Q13283)
UniProt Q13283, sequence (whole entry, looked up): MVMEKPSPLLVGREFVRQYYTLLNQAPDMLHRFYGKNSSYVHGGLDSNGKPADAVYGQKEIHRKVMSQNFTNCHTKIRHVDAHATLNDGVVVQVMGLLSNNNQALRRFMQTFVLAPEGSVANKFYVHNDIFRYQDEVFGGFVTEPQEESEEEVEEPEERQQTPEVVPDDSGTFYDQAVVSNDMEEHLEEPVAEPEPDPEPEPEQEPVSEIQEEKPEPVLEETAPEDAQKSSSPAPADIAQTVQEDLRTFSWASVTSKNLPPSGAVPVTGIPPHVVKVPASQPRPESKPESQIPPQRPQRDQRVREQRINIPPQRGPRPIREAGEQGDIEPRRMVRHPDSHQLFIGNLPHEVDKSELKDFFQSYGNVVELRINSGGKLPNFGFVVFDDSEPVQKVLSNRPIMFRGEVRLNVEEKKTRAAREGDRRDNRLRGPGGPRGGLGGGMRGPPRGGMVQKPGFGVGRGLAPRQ
Method: RNA Bind-n-Seq
Form: RNA
Medium: in vitro
Concentration: 1 µM
Setting: whole 134-nt RNA, ends assumed
Added: 150 mM KCl
Reference: input library
Reading: higher = stronger binding
Shared flanks, not repeated: GGGAGUUCUACAGUCCGACGAUC … UGGAAUUCUCGGGUGUCAAGG
| Strand | log2 enrichment |
| --- | --- |
| AGUCCUGUGCUACACAUCGUAUGUACCGAAUCGGCCCCCGGGGCCCCCGGGCCCCCGGAAAGUAUUAUGUUACGCCGUUCGGAUCUGCAC | -0.529 |
| CAAGUCCUGUGCUACACAUCGUAUGUACCGAAUCGGGAAAGGGGAAAGGAAAGGGAAAGUAUUAUGUUACGCCGUUCGGAUCUGCACUUC | -0.165 |
| CUCAAGUCCUGUGCUACACAUCGUAUGUACCGAAUCGGGUUGGUUGGGGUUGGGAAAGUAUUAUGUUACGCCGUUCGGAUCUGCACUUCC | 0.268 |
| AAGUCCUGUGCUACACAUCGUAUGUACCGAAUCAAACCCAAAUUUUUAAACCCAAAAAAGUAUUAUGUUACGCCGUUCGGAUCUGCACUU | -0.493 |
| ACCAUGCAGGUGGGCAUCUUUGGGAAGUGGGGCAAGGGGGGGAUAGGGAGGGGGGUAACACUUCGGGAACAGGUGGUCCCAGGUCGUUUC | 0.806 |
| CACAGACAACACGCACCCACACAGACACAGAGGAAAGGGGUUGGGAUGGGGACAGGGUGCACAGCAGGGCGGGGUAGGACCCCAGCCCCU | -0.177 |
| GCAGGAAGUAAAAACAAAUGGAAAUGCUUCGGAUAGUGGCAGGGGUGGGGGUUGCUUAGGAAAGGGUGGGAUGGGAGUGGGUAAAGAGUU | 1.45 |
| CACAGACAACACGCACCCACACAGACACAGAGGGACGGGGUUGGGAUGGGGACAGGGUGCACAGCAGGGCGGGGUAGGACCCCAGCCCCU | 0.383 |
| UCAAGUCCUGUGCUACACAUCGUAUGUACCGAAUCGGAAAGGGGAAAGGAAAGGAAAGUAUUAUGUUACGCCGUUCGGAUCUGCACUUCC | -0.257 |
| UGGGAGGUGGAUUUUGUUUAUUUUUUUAGCUCAUUUCCAGGGGUCGGAAUUUUUUUUUAAUAUGUGUCAUGAAUAAAGUUGUUUUUGAAA | 1.25 |
| GAGGGAGUUUGCAGAUACCUCAGGAUUCGUGACAAUGCCUUUAAAGAUCCAGGAGAGAUGUUCAGCUACUAGGAACUGCUAGCAAGUAUA | -0.0699 |
| UGCCCCUGGUGGCAUGCGGGGAGGAAGAGGUGGCCUCAUGGAUCGUGGUGGUCCCGGUGGAAUGUUCAGAGGUGGCCGUGGUGGAGACAG | 0.692 |
| UCCUUCCUUUUUUUGUCUUAAACAUAGGACAUGGAUUUGAUUGACAUACUUUGGAGGCAAGAUAUAGAUCUUGGAGUAAGUCGAGAAGUA | -0.48 |
| CAAGUCCUGUGCUACACAUCGUAUGUACCGAAUCGGUUUUUGGUGGAAAAAAAGGAAAGUAUUAUGUUACGCCGUUCGGAUCUGCACUUC | -0.198 |

Series 4
Target: RNA binding protein fox-1 homolog 2, RRM domain, GST-SBP tag (RBFOX2, Homo sapiens, UniProt O43251-10, residues 100-194)
Method: RNA Bind-n-Seq
Form: RNA
Medium: in vitro
Concentration: 365 nM
Setting: natural RNA segment, single round, ends assumed
Reference: no-protein control
Reading: higher = stronger binding
Shared flanks, not repeated: GGGAGUUCUACAGUCCGACGAUC … UGGAAUUCUCGGGUGCCAA
Construct (chain): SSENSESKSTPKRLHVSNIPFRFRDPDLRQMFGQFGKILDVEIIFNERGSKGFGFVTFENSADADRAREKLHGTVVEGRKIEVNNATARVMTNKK
| Strand | RBNS enrichment (R) |
| --- | --- |
| AUUUUUUACUCCCGCUAAUUUCAAUCAAUCGUUUUCAAAAGCGCACGAGAUUCACUCAUUGGAUUUAUGCAGUGCCCUGUCUGUAUAAAAACUCUUAAGAGUUCCUUUAU | 0.639 |
| GGGAGAUGGAUCACUGGGUAACAGCACUUGUCACCAAGCCCAACAGCCCAGGCUCAGUUCUUGGGACCCACAUGGUAGAAGGAGUGUACCGACAUUCCCCCAAGUUGUCC | 0.263 |
| AGAUGGUAUCAUCUCUAAACCUAAGAAUUUAUAGAAGCACUUCCUUACAGAGCUAAGAAUCCAUAGCCAUGGCUCUGUAAGCUAAACCUGAAGAGUGAUAUUUGUACAAU | 0.278 |
| GGCAUGAGCAGGGCACCUGGGGAGCCAGCUGCAUGGACCUGCUCUCCCUCGCUCGCUCCGGCUUCUCUGCUUUCCCAGGUCUCAGAAAAGAAACCCCUCCACAUCCCCGA | 2.17 |
| CCAGUGGGGUGAUUUUAACAUGCAAAUGUCUGAGAUUUCUUCACUUGCUUUCUUCCUUACUCUGCCCCACACACGUACACUUUCUGUAAAACUUGAAAAUAGAAAGCAAA | 0.408 |
| ACUCCGUUUCCAGUGAGCAGAUGUCUUGCUUGGAAAGUGGACCUGUGUCUGUGUCUGUCCUGAGAACUUACCAGCAGAAAUCCUCAUUUCUGUGCUACGGAUUUACCAAA | 0.33 |
| UAUAGUCAUGGGUUCUGCCUCUGUGCCCUUGCUGGCCGCUUCUCCUCUGCCUUCUUUCCUGGAACUCAGGGUGUGGGGACUGAGCCUGUAGGGGACAGCAUGCCGUCUUG | 0.593 |
| GCCCUCGGGAGGUGGCCCAUUAUUGCUGGGAUGCGGUGUUGGUAAAGGUUUCCAGGACUGAAACUUUGAUUUUCCGGGAUAUGUUAAAUGGUACAGCCACUAAGUAUCAC | 0.54 |
| CAAGAACUCUGCUUCUUGCUUUGCAGAGUGCCAUGGUCAUGUCAUUCUGAGGUCACAUAACACAUAAAAUUAGUUUCUAUGAGUGUAUACCAUUUAAAGAAUUUUUUUUU | 0.632 |
| UGCUAGCAGCAGUCUUCUUCACAGUGCCUUGGGAAAAGACAUUUCAAGAGGAAACUUGAUAAUUUUAAACUCUUUUCCCCCUUUACCGUCAUCUAUCCUCUAUCUGUAUC | 0.517 |
| GACUGGGUAGCAGGUUCCUUCUGUUGUCCUGUGUGGUGUGUCUACUGUGAGGGUGGGCCCUGAGGAGACCUGUGGGCCACCUAUUGUCUAAUAAAGUGGGCAGUUGCCCC | 0.246 |
| AGUUGUGGUAGAGCAAAGACCCACAGGGGUUGGACCCAGACCUCUUAAAACCUGGCUGGACCCCCAUGAGUCCACGCAGAGUCAAUAACUCACCUGUCAUGCUGUUCCCA | 0.382 |

A few entries again (series 3):
| Strand | log2 enrichment |
| --- | --- |
| CAAGUCCUGUGCUACACAUCGUAUGUACCGAAUCGGUUUUUGGUGGAAAAAAAGGAAAGUAUUAUGUUACGCCGUUCGGAUCUGCACUUC | -0.198 |
| UGCCCCUGGUGGCAUGCGGGGAGGAAGAGGUGGCCUCAUGGAUCGUGGUGGUCCCGGUGGAAUGUUCAGAGGUGGCCGUGGUGGAGACAG | 0.692 |
| ACCAUGCAGGUGGGCAUCUUUGGGAAGUGGGGCAAGGGGGGGAUAGGGAGGGGGGUAACACUUCGGGAACAGGUGGUCCCAGGUCGUUUC | 0.806 |
| UCCUUCCUUUUUUUGUCUUAAACAUAGGACAUGGAUUUGAUUGACAUACUUUGGAGGCAAGAUAUAGAUCUUGGAGUAAGUCGAGAAGUA | -0.48 |
